Values quoted from earlier work, collected from citations in different studies.
± marks the error that the study gave.

SMILES | target | read-out | action | cells | medium | IC50
N#Cc1ccc(N(Cc2ccc(O)c(Br)c2)n2cnnc2)cc1 | Aromatase (CYP19A1, Homo sapiens, UniProt P11511) | enzyme activity | inhibitor | JEG-3 |  | 0.001 to 0.01 µM
O=C(Nc1ccc(C(F)(F)F)cc1)Nc1ccc(C(F)(F)F)cc1Cl | Mas-related G-protein coupled receptor member X2 (MRGPRX2, Homo sapiens, UniProt Q96LB1) |  | antagonist |  |  | 0.8 µM
Nc1c2cc(Br)n3c2nc[n+]1[C@@H]1O[C@H](COP(=O)(O)OP(=O)([O-])OC[C@H]2O[C@@H]3[C@H](O)[C@@H]2O)[C@@H](O)[C@H]1O | cADPR receptor, sea urchin |  | antagonist |  | sea urchin egg homogenate | 0.73 µM
C#CCCCC1(CCC(=O)N[C@@H](CCCCNC(=S)CCCCCCCCCCCCC)C(=O)N[C@@H](C)C(=O)N[C@@H](C)C(=O)OC)N=N1 | NAD-dependent protein deacylase sirtuin-5, mitochondrial (SIRT5, Homo sapiens, UniProt Q9NXA8) | enzyme activity | inhibitor |  |  | > 5000 µM
COC(=O)c1ccc2c(c1)NC(=O)/C2=C(\Nc1ccc2c(c1)CCN2C(=O)CN1CCOCC1)c1ccccc1 | KIT |  | inhibitor |  |  | 0.01 µM
Cc1cccc2c(NCc3ccc(C(=O)Nc4ccccc4N)cc3)c3ccccc3nc12 | Histone deacetylase 1 (HDAC1, Homo sapiens, UniProt Q13547) |  |  |  |  | 0.248 µM
N#Cc1c(-c2ccc(Cl)cc2)c(C#N)c(=O)n(-c2ccc(S(=O)(=O)NC(=N)N)cc2)c1N | DNA gyrase | enzyme activity |  |  |  | 22 µM
COc1ccc(O[C@@H]2O[C@H](C(=O)O)[C@@H](O[C@@H]3O[C@H](COS(=O)(=O)O)[C@H](OS(=O)(=O)O)[C@H](O[C@@H]4O[C@H](C(=O)O)[C@@H](O[C@@H]5O[C@H](COS(=O)(=O)O)[C@H](OS(=O)(=O)O)[C@H](O)[C@H]5NC(C)=O)[C@H](OCc5ccccc5)[C@H]4O)[C@H]3NC(C)=O)[C@H](OCc3ccccc3)[C@H]2O)cc1 | Midkine (Homo sapiens, UniProt P21741) | binding to tetrasaccharides | inhibitor |  |  | 31 µM
COc1cc(C(c2c(O)c3ccccc3oc2=O)c2c(O)c3ccccc3oc2=O)ccc1OCc1cn(Cc2ccccc2C)nn1 | alpha-glucosidase |  |  |  |  | 16.4 ± 1.7 µM
Cc1c(O)c(=O)ccn1-c1cccc(C(=O)N/N=C/c2cc(Br)ccc2O)c1 | tyrosinase | enzyme activity | inhibitor |  |  | 25.3 µM
CC1=C(Cn2c3cccc(=O)c-3nc3ccccc32)CCC(C)(C)C1 | testosterone 5α-reductase |  | inhibitor |  |  | 0.5 µM
Cc1cc(Nc2nc(CCc3cccc([N+](=O)[O-])c3)nc3cc(N4CCN(C)CC4)ccc23)n[nH]1 | Aurora kinase B (AURKB, Homo sapiens, UniProt Q96GD4) | kinase activity | inhibitor |  |  | 0.152 µM
Cc1ccccc1CO[C@@H](CO)[C@H](O)C[S@@+]1C[C@@H](O)[C@H](O)[C@H]1CO | Sucrase-isomaltase, intestinal (Si, Rattus norvegicus, UniProt P23739) | sucrase activity | inhibitor |  | rat intestinal disaccharidases | 0.41 µM
Cc1cc(C)cc(S(=O)(=O)c2c(C(=O)NC3CC4(C3)CN(Cc3n[nH]c(=O)[nH]3)C4)[nH]c3ccc(Cl)cc23)c1 | Gag-Pol polyprotein, reverse transcriptase (gag-pol, Human immunodeficiency virus 1, UniProt P03366) | HIV-1 reverse transcriptase activity | inhibitor |  |  | 0.17 µM
OC[C@H](OCc1ccccc1Cl)[C@H](O)C[S@@+]1C[C@@H](O)[C@H](O)[C@H]1CO | rat intestinal maltase | maltase activity | inhibitor |  | rat intestinal disaccharidases | 0.31 µM
Cc1cc(N)nc(CC2CNCC2OCCNCC(F)(F)c2cccc(F)c2)c1 (racemic) | Nitric oxide synthase 1 (Nos1, Rattus norvegicus, UniProt P29476) |  |  | HEK-293T expressing nNOS |  | 19 µM

For quick reference, copied from above:
SMILES | target | read-out | action | cells | medium | IC50
CC1=C(Cn2c3cccc(=O)c-3nc3ccccc32)CCC(C)(C)C1 | testosterone 5α-reductase |  | inhibitor |  |  | 0.5 µM
COc1ccc(O[C@@H]2O[C@H](C(=O)O)[C@@H](O[C@@H]3O[C@H](COS(=O)(=O)O)[C@H](OS(=O)(=O)O)[C@H](O[C@@H]4O[C@H](C(=O)O)[C@@H](O[C@@H]5O[C@H](COS(=O)(=O)O)[C@H](OS(=O)(=O)O)[C@H](O)[C@H]5NC(C)=O)[C@H](OCc5ccccc5)[C@H]4O)[C@H]3NC(C)=O)[C@H](OCc3ccccc3)[C@H]2O)cc1 | Midkine (Homo sapiens, UniProt P21741) | binding to tetrasaccharides | inhibitor |  |  | 31 µM
